Assay results pooled from the literature.
A part holds a random share of what one study measured. Positions count from the first letter of the parent shown.

Series 1
Target: NFE2L1, bZIP domain (human)
Method: DHFR protein complementation
Matrix: yeast
Setting: single substitutions, most at no-binding floor
Relative to: wild-type JUN-FOS pair
Direction: higher = stronger binding
Endpoint: binding fitness
Starting sequence: JUN, bZIP domain (human); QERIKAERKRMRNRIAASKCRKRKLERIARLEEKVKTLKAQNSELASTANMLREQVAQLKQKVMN; partner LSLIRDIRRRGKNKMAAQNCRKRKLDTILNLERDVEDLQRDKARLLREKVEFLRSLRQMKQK
M51P: -1.54 natural log
T48F: -1.32 natural log
E32M: -1.19 natural log
V35I: -1.55 natural log
E32N: -1.34 natural log
A29S: -1.51 natural log
R53N: -1.45 natural log
T48M: -1.26 natural log
A46Y: -1.32 natural log
V35M: -1.55 natural log
S43G: -1.46 natural log
Q55G: -1.46 natural log
Q41L: -1.56 natural log
A49W: -1.53 natural log
E44W: -1.52 natural log
A29M: -1.5 natural log
E33K: -1.46 natural log

Series 2
Target: ABI1, truncated, D143A, DHFR fusion (Arabidopsis thaliana)
Method: DHFR PCA, deep sequencing
Matrix: yeast
Setting: methotrexate growth selection, single substitutions
Added: (+)-ABA 0.11 µM
Relative to: wild-type fitted maximum
Direction: higher = stronger binding
Endpoint: relative binding score
Starting sequence: PYL1, truncated, DHFR fusion (Arabidopsis thaliana); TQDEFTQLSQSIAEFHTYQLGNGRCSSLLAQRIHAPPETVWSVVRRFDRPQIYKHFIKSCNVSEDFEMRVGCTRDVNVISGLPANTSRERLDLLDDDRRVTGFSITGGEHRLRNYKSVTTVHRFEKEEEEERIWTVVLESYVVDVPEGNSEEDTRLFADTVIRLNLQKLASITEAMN
N114V: -6.09%
V161G: -8.38%
V118M: 4.23%
N77V: 61.4%
S104T: 41.2%
V118Q: -1.11%
I79S: 21.1%
Q31S: 2.72%
R155G: -9.26%
R90Q: 5.64%
E131Y: 15%
S26N: 3.78%
Q10A: 50.6%
S87K: -6.62%
L29Q: 1.53%
S104N: 4.53%
V145R: -2.17%
E109K: 1.88%
D3L: 27.9%
R113I: 23.1%
R111G: 4.26%
N165A: 5.2%
F124M: 60.6%
R163D: 0.662%
F66E: 8.55%

Series 3
Target: UBE2I UBC core domain (UniProt P63279)
Method: yeast two-hybrid
Matrix: yeast
Setting: mostly zero background
Relative to: not given
Direction: higher = stronger interaction
Endpoint: lacZ reporter activity
B1: ZNF598 RING domain (UniProt Q86UK7); chain AAAPERGGGSCVLCCGDLEATALGRCDHPVCYRCSTKMRVLCEQRYCAVCREELRQVVFGK
B2: ARK2C RING domain (UniProt Q6ZSG1); chain EGEESDTDEKCTICLSMLEDGEDVRRLPCMHLFHQLCVDQWLAMSKKCPICRVDIETQLGAD
B3: IRF2BPL RING domain (UniProt Q9H1B7); chain SPMANSGPLCCTICHERLEDTHFVQCPSVPSHKFCFPCSRESIKAQGATGEVYCPSGEKCPLVGSNVP
B4: TRIM69 RING domain (UniProt Q86WT6); chain VIQDITMELHCPLCNDWFRDPLMLSCGHNFCEACIQDFWRLQAKETFCPECKMLCQYNNCTF
B5: CUL9 RING domain (UniProt Q8IWT3); chain AQAVPVRPDHCPVCVSPLGCDDDLPSLCCMHYCCKSCWNEYLTTRIEQNLVLNCTCPIADCPAQPTGAFIR
B6: RNF170 RING domain (UniProt Q96K19); chain TRQQFYTDMYCPICLHQASFPVETNCGHLFCGACIIAYWRYGSWLGAISCPICRQTVTLLLTVF
DDENSDNSNECVVCLSDLRDTLILPCRHLCLCTSCADTLRYQANNCPICRLPFRALLQIR (MGRN1 RING domain (UniProt O60291)): 0
B1 (ZNF598 RING domain): 0
FPEHFVKSISCQICEHILADPVETNCKHVFCRVCILRCLKVMGSYCPSCRYPCFPTDLES (RAG1 RING domain (UniProt P15918)): 0
B2 (ARK2C RING domain): 0
B3 (IRF2BPL RING domain): 0
B4 (TRIM69 RING domain): 0
KTLSRFGIQPCSICLGDAKDPVCLPCDHVHCLRCLRAWFASEQMICPYCLTALPDEFSPA (RNF213 RING domain (UniProt Q63HN8)): 0
PEELQAMDNVCIICREEMVTGAKRLPCNHIFHTSCLRSWFQRQQTCPTCRMDVLRASLPA (SYVN1 RING domain (UniProt Q86TM6)): 0
RLTMMWEEVTCPICLDPFVEPVSIECGHSFCQECISQVGKGGGSVCPVCRQRFLLKNLRP (TRIM21 RING domain (UniProt P19474)): 0
B5 (CUL9 RING domain): 0
B6 (RNF170 RING domain): 0
VTLSLTLPITCHICLGKVRQPVICINNHVFCSICIDLWLKNNSQCPACRVPITPENPCK (OBI1 RING domain (UniProt Q5W0B1)): 0
QLRRLQEERTCKVCMDKEVSVVFIPCGHLVVCQECAPSLRKCPICRGIIKGTVRTF (BIRC2 RING domain (UniProt Q13490)): 0

Series 4
Target: CCNE1, cyclin fold, Cln2 fusion (human)
Method: yeast growth competition, sequencing
Matrix: yeast
Setting: strong parent motif
Relative to: not given
Direction: higher = stronger binding
Endpoint: normalised enrichment score
Starting sequence: GMNC docking peptide (human); KNAKRNLSSEFAN
KNAKRNNSSEFAN [L7N]: 0.0985
KNKKRNLSSEFAN [A3K]: 0.324
KNAKRNLSSEFLN [A12L]: 0.927
KNAKRNLSNEFAN [S9N]: 1.51
KNAKRNLSSVFAN [E10V]: 0.772
KNAKTNLSSEFAN [R5T]: 0.0723
KNAKRNLSSEFTN [A12T]: 1.49
KNGKRNLSSEFAN [A3G]: 0.494
KNAKRPLSSEFAN [N6P]: 0.0711
KNAQRNLSSEFAN [K4Q]: 0.417
KNAKRNLSDEFAN [S9D]: 1.67
KNAKRELSSEFAN [N6E]: 0.359
KNAKMNLSSEFAN [R5M]: 0.163
KNAKFNLSSEFAN [R5F]: 0.014
KNAKRTLSSEFAN [N6T]: 0.0726
KNDKRNLSSEFAN [A3D]: -0.0842
KNAKRNVSSEFAN [L7V]: 0.291
KNAKRLLSSEFAN [N6L]: -0.263
KNAKRNLWSEFAN [S8W]: 0.917

Series 5
Target: Interferon regulatory factor 7, full length, phosphomimetic (IRF7, Homo sapiens, UniProt Q92985, residues 1-503, S471D/S472D/S475D/S476D/S477D/S483D/S484D/S487D)
Method: protein-binding microarray
Molecule type: double-stranded DNA, one strand shown
Matrix: in vitro
Concentration: 2200 nM top
Setting: 60-bp whole probe
Added: salmon DNA 0.4 mg/ml
Relative to: random background probes
Direction: higher = stronger binding
Endpoint: fitted relative affinity
Constant ends, left off below: GCCTAGCAC … GTCTTGATTCGCTTGACGCTGCTG
Target sequence (chain): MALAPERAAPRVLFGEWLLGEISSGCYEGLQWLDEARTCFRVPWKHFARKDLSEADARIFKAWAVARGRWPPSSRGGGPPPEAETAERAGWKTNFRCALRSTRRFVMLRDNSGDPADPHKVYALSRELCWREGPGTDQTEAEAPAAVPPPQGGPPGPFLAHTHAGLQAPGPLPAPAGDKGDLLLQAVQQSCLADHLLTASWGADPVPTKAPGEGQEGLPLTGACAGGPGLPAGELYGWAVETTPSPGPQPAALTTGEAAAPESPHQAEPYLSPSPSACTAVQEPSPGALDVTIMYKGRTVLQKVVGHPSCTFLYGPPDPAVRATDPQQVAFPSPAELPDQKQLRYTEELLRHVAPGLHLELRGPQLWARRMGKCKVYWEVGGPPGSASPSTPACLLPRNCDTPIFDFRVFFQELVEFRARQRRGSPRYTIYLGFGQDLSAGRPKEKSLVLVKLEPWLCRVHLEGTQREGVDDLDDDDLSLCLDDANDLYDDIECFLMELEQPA
TTAGATATCAGACTGCATTAGTGCTAG: -0.0896 z-score
TCATTTTCCTAATTGAAACTGTGCTAG: 3.4 z-score
GACGGACTGGACTGTCGGGACGTGCTA: -0.873 z-score
GACGATTTCAGACTGGACACGTGCTAG: 0.583 z-score
TTAGGTTTCAGTATCGGTTAGTGCTAG: 2.63 z-score
TCATGCTTCTGTATGGGACTGTGCTAG: 0.806 z-score
TCACTTCTCTAACCTCTCACTGTGCTA: 2.19 z-score
TTAGGTCTCGGTCTCGGTTTGTGCTAG: 1.77 z-score
GACGGTCTCCTACCGCTGACGTGCTAG: 0.123 z-score
ATAGGTCTCCTACTGCTTTAGTGCTAG: 0.793 z-score
TTAGGTTTTGGTATCGGTTAGTGCTAG: 1.65 z-score
TTCTACTTCTCTTTTTGCTTGTGCTAG: 2.65 z-score
GACGCTATCCTTCTCCTGACGTGCTAG: 1.64 z-score
CTTTAACTCATTCTCTGCTTGTGCTAG: 1.25 z-score
GACGACTTCAGTTCCGAGACGTGCTAG: 0.447 z-score
CCTATTATATATATCATAAGGTGCTAG: 1.03 z-score
GACGATATCAGGACTGGAGACGTGCTA: -0.184 z-score
TTAGAACTGAGTCTCGATGAGTGCTAG: -0.504 z-score

Series 6
Target: Histone acetyltransferase KAT6A, winged helix 1, GST fusion (KAT6A, Homo sapiens, UniProt Q92794, residues 1-85)
Method: protein binding microarray
Molecule type: double-stranded DNA, one strand shown
Matrix: in vitro
Concentration: not given
Setting: 8-mer, flanks averaged, mean of 2 arrays, mostly near background
Relative to: not given
Direction: higher = stronger binding
Endpoint: E-score
Residues (chain): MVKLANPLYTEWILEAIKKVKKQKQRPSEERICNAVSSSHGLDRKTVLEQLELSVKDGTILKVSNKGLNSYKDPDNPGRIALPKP
AAACGGGG: 0.184
CGGTCCTA: 0.173
AGTCGAAT: -0.191
AGGAGGCA: -0.103
ATGCGTGC: 0.14
AGTTGAGG: -0.219
ACCACCCG: 0.269
GGTGGCAA: -0.246
AATGGGAC: -0.183
GAACATGC: -0.0426
CCAAACCC: -0.0439
AATATTTA: -0.00294
AATACGTG: -0.112
ATAAATGG: -0.204
CCTAAGGA: -0.157
GCCTGCAC: -0.0172
ACGCCGCC: 0.427
AATGGCAA: -0.186
CCTGAAAG: -0.288
GCTTGGTA: -0.0445
CGGATAAG: 0.143
CACCCGGA: 0.0299
CAGGTAGG: 0.0898

A few entries again (series 2):
S104T: 41.2%
V118M: 4.23%
N165A: 5.2%
V161G: -8.38%
N77V: 61.4%
F124M: 60.6%
Q31S: 2.72%
S104N: 4.53%
N114V: -6.09%
L29Q: 1.53%
V145R: -2.17%
F66E: 8.55%
R163D: 0.662%
R90Q: 5.64%
S87K: -6.62%
R111G: 4.26%
V118Q: -1.11%
D3L: 27.9%
R113I: 23.1%
